Experimental data pooled from the literature.
Parts stem from different laboratories: compare values within a part only.

Study 1
Target: Histone acetyltransferase KAT6A, winged helix 2, GST fusion (KAT6A, Homo sapiens, UniProt Q92794, residues 85-181)
Technique: protein binding microarray
Form: double-stranded DNA, one strand shown
Matrix: in vitro
Concentration: not given
Setting: 8-mer, flanks averaged, mean of 2 arrays, mostly near background
Baseline: not given
Direction: higher = stronger binding
Residues (chain): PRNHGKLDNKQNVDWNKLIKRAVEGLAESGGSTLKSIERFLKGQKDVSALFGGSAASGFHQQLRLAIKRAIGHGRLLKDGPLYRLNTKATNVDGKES
`AAAGCCTC` gave an E-score of 0.00509.
The E-score of `TCAATACA` is reported as -0.0273.
The E-score of `CCATGAAA` is reported as 0.0862.
`ATACGCGG` has an E-score of -0.127.
The E-score of `CATTGCCC` is reported as -0.0767.
The E-score of `ATACGGAG` is reported as -0.13.
`CGGCTTAC` has an E-score of 0.0202.
`ATGAAGTG` has an E-score of -0.164.
With `AGTGACCA` the E-score was -0.064.
`GGACTGCA` has an E-score of -0.0657.
`CGACGACC` has an E-score of 0.106.
`GCGTGCCC` gave an E-score of 0.112.
For `CTCCTGCA`, the E-score was -0.113.
`AAATGTCG` gave an E-score of 0.0328.
With `ATGATCCC` the E-score was -0.104.
For `ACTCTTTG`, the E-score was -0.0986.
`AAAGAACT` gave an E-score of 0.124.
With `AAGGTAAA` the E-score was 0.0846.

Study 2
Target: Centromere-binding protein 1, full length, N-terminal tag (CBF1, Saccharomyces cerevisiae, UniProt P17106, residues 1-351)
Chain of UniProt P17106 (whole entry, looked up): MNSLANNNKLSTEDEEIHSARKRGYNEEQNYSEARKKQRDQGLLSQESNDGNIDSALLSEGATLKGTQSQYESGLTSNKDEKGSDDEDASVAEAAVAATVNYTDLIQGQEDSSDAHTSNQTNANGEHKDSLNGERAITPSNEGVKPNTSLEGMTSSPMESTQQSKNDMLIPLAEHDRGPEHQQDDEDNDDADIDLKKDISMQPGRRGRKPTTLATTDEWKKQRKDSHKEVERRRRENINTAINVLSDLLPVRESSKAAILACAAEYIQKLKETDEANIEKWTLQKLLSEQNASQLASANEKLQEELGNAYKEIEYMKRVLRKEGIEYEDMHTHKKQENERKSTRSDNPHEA
Technique: protein-binding microarray
Form: double-stranded DNA, one strand shown
Matrix: in vitro
Concentration: 0.8 µM
Setting: whole 60-bp probe, no competitor
Direction: higher = stronger binding
All sequences stand within: … GTCTTGATTCGCTTGACGCTGCTG
With `CTATACAAATTCCCTGATGCTAACTATTTGTTATTC` the fluorescence intensity was 504 a.u.
With `GAATTGACAGCACATGTGATTTATAGTTCTCCTTAG` the fluorescence intensity was 3080 a.u.
`GAACGAATAGTTCGTCAGGTGCCAGCACTGAGATAG` has a fluorescence intensity of 1620 a.u.
With `GAAAGATTACTCGTGCACGCAAAAATAAATGTTTAG` the fluorescence intensity was 816 a.u.
The fluorescence intensity of `GAAACGTTAATGTCTCATGTGACTGAGCTGCAGTAG` is reported as 1910 a.u.
`CTAAGCTTATCAAAGCAGATCACAACGATTATATTC` gave a fluorescence intensity of 502 a.u.
The fluorescence intensity of `GAAAGGTTCTATCCCCATGTGCCTCGTCATCGGTAG` is reported as 621 a.u.
For `CCTAACTACTATAATGCACGTGCATAGCTTCGTACA`, the fluorescence intensity was 8770 a.u.
`GAACTACTTTCAGATGCGCTGATGGGCGTGCTTTAG` has a fluorescence intensity of 531 a.u.
With `GAATTCATACCTTATGTCACCATCTAACGCCTTTAG` the fluorescence intensity was 523 a.u.
For `CCTAACTACTATAGTGACTTTGAATAGCTTCGTACA`, the fluorescence intensity was 516 a.u.
With `CTAATTACTAGGCATGATGTATGGAGGAACTTGTTC` the fluorescence intensity was 551 a.u.
With `CTATCCATGACGTTCTACGTGGTTCTCTTGGTCTTC` the fluorescence intensity was 514 a.u.
With `GAATTTTCCAAAACAAGCGTGTCATGTGAGCTTTAG` the fluorescence intensity was 3420 a.u.
The fluorescence intensity of `GAATGTTTATTGTGTGGTGTGGTTTGACGCACATAG` is reported as 542 a.u.
`GAAGACGAGAGTAAGTGCGTGTCAATCTAGTTGTAG` gave a fluorescence intensity of 520 a.u.
The fluorescence intensity of `CTAGCCAAGCATTATCAGGTGCCCATAAATAACTTC` is reported as 1270 a.u.
`GAATTTTCCCAGAGACGCGTGGAAGCACCCATGTAG` has a fluorescence intensity of 537 a.u.
`CTAAGTAGAGAGAATCACGATCTAAATAATAATTTC` gave a fluorescence intensity of 626 a.u.
The fluorescence intensity of `CTACAGCTACGTGTGATCATATAATTCCTGCATTTC` is reported as 701 a.u.
For `GAAGTTCTTTAACATGTGATGAGTTATATCTTGTAG`, the fluorescence intensity was 2870 a.u.
With `TGTACGAAGCTATCCCACGATAATATAGTAGTTAGG` the fluorescence intensity was 494 a.u.
`GAAGTGCTTGCTGTGAAGGTGGTGCGTACTGTTTAG` gave a fluorescence intensity of 515 a.u.
The fluorescence intensity of `CTAACGACTTCTTATCACGTATAGGAGTGATATTTC` is reported as 550 a.u.
With `CTACTAATCATTATGCACGTCAAGATTCTCCGTTTC` the fluorescence intensity was 551 a.u.

Study 3
Target: Ras GTPase-activating protein-binding protein 1, RRM domain (G3BP1, Homo sapiens, UniProt Q13283)
Chain of UniProt Q13283 (whole entry, looked up): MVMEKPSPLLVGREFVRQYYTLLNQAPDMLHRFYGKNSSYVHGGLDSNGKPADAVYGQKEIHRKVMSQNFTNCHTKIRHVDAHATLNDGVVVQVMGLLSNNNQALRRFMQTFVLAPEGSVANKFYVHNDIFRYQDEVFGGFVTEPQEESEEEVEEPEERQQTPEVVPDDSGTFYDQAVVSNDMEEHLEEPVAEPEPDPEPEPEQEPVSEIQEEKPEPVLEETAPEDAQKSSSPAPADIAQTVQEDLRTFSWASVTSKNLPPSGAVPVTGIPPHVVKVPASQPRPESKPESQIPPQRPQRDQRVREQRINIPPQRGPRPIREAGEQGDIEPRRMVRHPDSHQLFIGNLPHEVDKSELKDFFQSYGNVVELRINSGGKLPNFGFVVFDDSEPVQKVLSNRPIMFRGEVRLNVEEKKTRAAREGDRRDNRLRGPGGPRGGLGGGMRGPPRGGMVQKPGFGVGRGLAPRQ
Technique: RNA Bind-n-Seq
Form: RNA
Matrix: in vitro
Concentration: 1 µM
Setting: whole 134-nt RNA, ends assumed
With: 150 mM KCl
Baseline: input library
Direction: higher = stronger binding
All sequences stand within: GGGAGUUCUACAGUCCGACGAUC … UGGAAUUCUCGGGUGUCAAGG
For `CUCAAGUCCUGUGCUACACAUCGUAUGUACCGAAUCGGGAAAGGGUGGGAGGGAAAGUAUUAUGUUACGCCGUUCGGAUCUGCACUUCCA`, the log2 enrichment was 0.757.
For `CACAGACAACACGCACCCACACAGACACAGAGGGAAGGGGUUGGGAUGGGGACAGGGUGCACAGCAGGGCGGGGUAGGACCCCAGACCCU`, the log2 enrichment was -0.558.
`CACAGACAACACGCACCCACACAGACACAGAGGGAAGGGGUUGGGAUGGGGACAGGGUGCACAGCAGGGCGGGUUAGGACCCCAGCCCCU` has a log2 enrichment of -0.359.
`CAAGUCCUGUGCUACACAUCGUAUGUACCGAAUCGGAAAAAGGUUUUUUUGGUGGAAAGUAUUAUGUUACGCCGUUCGGAUCUGCACUUC` has a log2 enrichment of -0.319.
`UAACUUUAGAGGAGGAUCUGAUGGAUAUGGCAGUGGACGUGGAUUUGGGGAUGGCUAUAAGGGGUAUGGAGGAGGACCUGGAGGUGGCAA` gave a log2 enrichment of -0.379.
`CUGUGCUACACAUCGUAUGUACCGAAUCGGGGUUUUUGGGGUUUUUUUGGGGAAAAAGGGGAAAGUAUUAUGUUACGCCGUUCGGAUCUG` has a log2 enrichment of 0.868.
The log2 enrichment of `CACAGACAACACGCACCCACACAGACACAGAGGGAAGGGGUUGGGAUGGGGACAGGGUGCACAGCAGGGCAGGGUAGGACCCCAGCCCCU` is reported as -0.429.
For `CCUGUGCUACACAUCGUAUGUACCGAAUCGGCCCCCCGGGGCCCCCCGGGGCCCCCCGGGGAAAGUAUUAUGUUACGCCGUUCGGAUCUG`, the log2 enrichment was -0.657.
`UUCCUCAAGUCCUGUGCUACACAUCGUAUGUACCGAAUCGGAGGUGGUGGAAAGUAUUAUGUUACGCCGUUCGGAUCUGCACUUCCAGCA` has a log2 enrichment of -0.325.
`UUCUCUAAGAGGAACUCCGGCGCGUCAGAGUAACAGAAGCGAGAGCACAGACAGUCUUGGGGGCUUGUCUCCCUCUGAAGUCACAGCCAU` has a log2 enrichment of -0.0465.
With `UUUUCAAAAUAAGGAGCUUCCCAGACCUGUGUUAGAAGGGCAGCAGUCAGAGAGGACCCCAAAUAAUCGCCCUGAUGCCCCUAAGGAGAA` the log2 enrichment was -0.133.
For `UGGCCCUGGUGGCAUGCGGGGAGGAAGAUGUGGCCUCAUGGAUCGUGGUGGUCCCGGUGGAAUGUUCAGAGGUGGCCGUGGUGGAGACAG`, the log2 enrichment was 0.822.
With `UGGGAGGUGGAUUUUGUUUAUUUUUUUAGCUCUUUUCCAGGGGUGGGAAUUUUUUUUUAAUAUGUGUCAUGAAUAAAGUUGUUUUUGAAA` the log2 enrichment was 1.43.
The log2 enrichment of `CUCAAGUCCUGUGCUACACAUCGUAUGUACCGAAUCGGGGAGGGAGGGAGGGGAAAGUAUUAUGUUACGCCGUUCGGAUCUGCACUUCCA` is reported as 0.657.

Study 4
Target: RNA binding protein fox-1 homolog 2, RRM domain, GST-SBP tag (RBFOX2, Homo sapiens, UniProt O43251-10, residues 100-194)
Technique: RNA Bind-n-Seq
Form: RNA
Matrix: in vitro
Concentration: 365 nM
Setting: natural RNA segment, single round, ends assumed
Baseline: no-protein control
Direction: higher = stronger binding
All sequences stand within: GGGAGUUCUACAGUCCGACGAUC … UGGAAUUCUCGGGUGCCAA
Target sequence (chain): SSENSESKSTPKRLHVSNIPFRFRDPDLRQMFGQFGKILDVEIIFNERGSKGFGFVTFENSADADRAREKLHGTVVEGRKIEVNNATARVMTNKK
`ACCAUCAUACUGACACUCUUUUCCUUUAGGAAACCCUCACUGACUGACCUAGGGAGCCCUACGAAGUUGUUAACACAGUACUUCUUAGCAUUCCUACGUUAUCCAUAUGU` — result for “RBNS enrichment (R)”: 0.235.
`CUAACUUUGCCACUUCAAGCCUCAAGACAGAUUCAUGUAGCAGUUCCUCAAAACCCCCUGGAGGGGCAAAAGAUGACAGCGACACAGAGAAAGUUUGGGGCAUGAUAUAU`: “RBNS enrichment (R)” 0.354.
`AACAAAACACCUGAUUAAGCUCUUGAGUAUGGCAUAGGAAUUUUUUAGAAGAAUGCAUUCAAGGAUUCUUUUCCUUUCCUUCAGUGUCAUUAAUGUUAAAAGAGCAGCCA`: “RBNS enrichment (R)” 0.575.
Under “RBNS enrichment (R)”, `CUCAGGAUAUGGGGCCAAUCUCUGUGAGUCCAGCAUGUACCUGUCUCUCCCUAGUGUCCCUUCAGCCUGGGCUGACCAGUGCCCGCCUCUGGGCUUGACCAGUUCCCAAU` is recorded as 7.53.
`UCAUUUACUCUCCCAUUAGUAGAACUUGCACUUUGGGCUGUCUGUUCUAGUAUUUGGGAAGUGUUUAUGCUUCCUUCCAGGGACCAUCUUAUGAUCAGAGGCAGGAUGUC`: “RBNS enrichment (R)” 0.39.
`UUAGAUUUUCUGUCUUAAACCAUUGGAAGCAAAACGGUUUUCCCAUGACAUUCUGGCCUUGGACAGAUUCUGUUGUCCUCGACGCGUCUCUUUAUAAAGUGGUAAAAGCC` — result for “RBNS enrichment (R)”: 0.285.
For `GCAUGAACCAGUGCGCCACAUGUGAUUUUGAAAUAAACACCUCAACUAGCACUAAUUUUAUUUGCAAUAUUUUUCUAUAAAACAAGUAGCUCUUGGAAAAGAGGUUUUCU`, “RBNS enrichment (R)” read 0.405.
`CCCAUGGGACCACAGACCCAGCUCAGCUCUGUUGAAGACCAAGCACAAAGGCCUUGAAGAGUGGACAUUCCCAGGUCCCUGGCACCUUCCCUUGAGCCAGCUCCAUUGCU`: “RBNS enrichment (R)” 0.324.
`GGAAAGGAGGUGGCUAGUGGUAUCAGUUCUCUGAUCCACUUCCAUUUAAGCUCCCCAGGAAAUCCCAUGACAAACUGGCCUCUGGCUGGCGCGCUGAUUAGACUUCAGUU` — result for “RBNS enrichment (R)”: 0.183.
`AUGCUGGAGGUACCCCCGAGGCACAGGCACUGCCCGUUCCCCUUGCCUGGGCUUCAGGCCUUCUGGCACCUUCUCAGGACACAAGUGGCUGCCCAACCCUGACUCAGAGA` — result for “RBNS enrichment (R)”: 0.44.
`AGCUGAACUAGGUUGCUCUUUUUUGGCAGGGAGUGGGGAUGAGAUUUGACACCAAUAUGGGCAAAAUUAGAUAACCUUUUGGUUAAUAUAAAUGAUUUUGAUUUGGAGGC`: “RBNS enrichment (R)” 0.62.
`CAACCCUGCGGAUGUGGUGGAAAUCAGGACACUGUCCCGGCCAUCUGAGACCUGCAAUGAGACCACCAAGCUUGGGGACUUUGUUCGAUACCAUUACAACUGUUCUUUGC`: “RBNS enrichment (R)” 0.568.
